Literature values as cited in several papers.
Compare with care: the assays were run in different laboratories. ± gives the spread as reported.
Gastrin-releasing peptide receptor: Gastrin-releasing peptide receptor (Rattus norvegicus, UniProt P52500)
Sequence of UniProt P52500 (whole entry, looked up): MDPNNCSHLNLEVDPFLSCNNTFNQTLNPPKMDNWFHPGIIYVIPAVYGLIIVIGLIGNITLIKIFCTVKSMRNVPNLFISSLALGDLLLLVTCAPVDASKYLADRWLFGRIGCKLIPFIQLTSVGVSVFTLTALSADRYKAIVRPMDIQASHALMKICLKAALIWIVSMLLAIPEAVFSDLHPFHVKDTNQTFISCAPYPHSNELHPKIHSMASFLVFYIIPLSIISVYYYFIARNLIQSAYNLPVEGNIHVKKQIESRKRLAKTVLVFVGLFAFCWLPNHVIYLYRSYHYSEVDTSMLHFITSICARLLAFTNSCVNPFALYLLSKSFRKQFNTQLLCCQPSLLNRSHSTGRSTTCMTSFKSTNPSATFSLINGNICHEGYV
gag-pol integrase: Gag-Pol polyprotein, integrase (gag-pol, Human immunodeficiency virus type 1 group M subtype B, UniProt P04585)
atpG/atpA/atpD: atpG/atpA/atpD (Escherichia coli, UniProt P0ABA6+P0ABB0+P0ABB4)
Sequence of UniProt P0ABB0 (whole entry, looked up): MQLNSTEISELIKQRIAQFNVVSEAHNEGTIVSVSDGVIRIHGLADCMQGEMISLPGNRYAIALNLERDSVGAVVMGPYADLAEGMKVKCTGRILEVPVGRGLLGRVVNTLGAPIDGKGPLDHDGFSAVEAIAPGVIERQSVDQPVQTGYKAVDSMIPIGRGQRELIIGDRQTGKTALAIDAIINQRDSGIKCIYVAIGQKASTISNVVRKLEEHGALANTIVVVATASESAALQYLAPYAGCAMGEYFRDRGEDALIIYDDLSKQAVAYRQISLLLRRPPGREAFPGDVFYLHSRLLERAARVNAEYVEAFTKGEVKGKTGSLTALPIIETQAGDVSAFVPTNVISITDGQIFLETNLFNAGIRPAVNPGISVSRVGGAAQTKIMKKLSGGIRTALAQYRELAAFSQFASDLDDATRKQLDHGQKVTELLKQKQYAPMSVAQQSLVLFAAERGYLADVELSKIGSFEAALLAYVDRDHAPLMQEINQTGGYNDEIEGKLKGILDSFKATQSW
Sequence of UniProt P0ABA6 (whole entry, looked up): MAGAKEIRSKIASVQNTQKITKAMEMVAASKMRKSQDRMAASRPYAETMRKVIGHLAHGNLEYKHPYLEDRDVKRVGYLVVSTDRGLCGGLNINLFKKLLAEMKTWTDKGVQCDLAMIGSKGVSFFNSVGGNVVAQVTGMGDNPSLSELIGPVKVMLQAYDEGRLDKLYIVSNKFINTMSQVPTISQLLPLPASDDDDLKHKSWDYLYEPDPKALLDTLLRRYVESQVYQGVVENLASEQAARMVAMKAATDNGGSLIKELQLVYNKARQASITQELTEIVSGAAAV
Sequence of UniProt P0ABB4 (whole entry, looked up): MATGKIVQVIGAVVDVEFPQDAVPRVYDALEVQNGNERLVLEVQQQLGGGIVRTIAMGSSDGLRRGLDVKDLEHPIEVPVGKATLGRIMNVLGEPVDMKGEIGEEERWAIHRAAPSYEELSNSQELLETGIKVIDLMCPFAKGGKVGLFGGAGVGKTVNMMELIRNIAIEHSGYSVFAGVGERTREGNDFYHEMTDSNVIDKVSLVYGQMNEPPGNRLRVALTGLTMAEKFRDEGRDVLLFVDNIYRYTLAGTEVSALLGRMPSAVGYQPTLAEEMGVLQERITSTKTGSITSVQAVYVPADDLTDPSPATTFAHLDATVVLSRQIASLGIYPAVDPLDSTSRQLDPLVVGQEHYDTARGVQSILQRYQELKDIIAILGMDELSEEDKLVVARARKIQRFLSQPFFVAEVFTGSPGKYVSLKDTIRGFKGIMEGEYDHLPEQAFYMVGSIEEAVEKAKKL
Sequence of UniProt O75533 (whole entry, looked up): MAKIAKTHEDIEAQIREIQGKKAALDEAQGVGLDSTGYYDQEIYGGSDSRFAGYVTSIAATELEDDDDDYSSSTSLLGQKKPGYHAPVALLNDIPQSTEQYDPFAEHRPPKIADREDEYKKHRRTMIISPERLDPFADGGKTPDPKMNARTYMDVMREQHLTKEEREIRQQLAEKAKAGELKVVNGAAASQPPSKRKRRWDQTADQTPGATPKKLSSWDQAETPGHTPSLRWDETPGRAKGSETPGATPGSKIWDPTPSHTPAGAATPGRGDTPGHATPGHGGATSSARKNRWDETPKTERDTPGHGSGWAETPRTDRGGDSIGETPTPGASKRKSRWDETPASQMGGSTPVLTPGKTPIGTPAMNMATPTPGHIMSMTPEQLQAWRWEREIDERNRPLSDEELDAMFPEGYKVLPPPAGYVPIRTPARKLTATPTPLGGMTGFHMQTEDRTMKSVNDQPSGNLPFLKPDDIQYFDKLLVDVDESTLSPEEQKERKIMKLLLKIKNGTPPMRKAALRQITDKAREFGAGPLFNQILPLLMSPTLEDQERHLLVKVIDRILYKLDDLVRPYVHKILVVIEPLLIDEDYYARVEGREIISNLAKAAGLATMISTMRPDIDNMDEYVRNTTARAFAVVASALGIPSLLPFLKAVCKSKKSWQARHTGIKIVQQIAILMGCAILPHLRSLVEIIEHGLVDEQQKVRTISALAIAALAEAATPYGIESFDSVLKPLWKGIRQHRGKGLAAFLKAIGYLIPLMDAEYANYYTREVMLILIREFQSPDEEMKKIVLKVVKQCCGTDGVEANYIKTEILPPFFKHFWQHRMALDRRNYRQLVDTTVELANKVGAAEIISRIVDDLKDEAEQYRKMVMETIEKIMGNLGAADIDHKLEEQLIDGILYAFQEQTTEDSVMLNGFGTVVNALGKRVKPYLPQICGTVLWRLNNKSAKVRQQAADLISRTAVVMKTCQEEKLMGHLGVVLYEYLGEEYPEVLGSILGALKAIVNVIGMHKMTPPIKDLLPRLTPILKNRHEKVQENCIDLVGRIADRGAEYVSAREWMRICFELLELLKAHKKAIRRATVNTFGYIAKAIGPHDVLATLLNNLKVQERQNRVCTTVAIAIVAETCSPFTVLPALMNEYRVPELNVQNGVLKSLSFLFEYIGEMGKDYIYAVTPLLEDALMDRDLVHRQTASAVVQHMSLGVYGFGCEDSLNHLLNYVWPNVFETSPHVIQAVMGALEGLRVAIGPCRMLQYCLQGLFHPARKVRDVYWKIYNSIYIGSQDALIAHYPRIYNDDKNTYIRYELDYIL
Sequence of UniProt O94956 (whole entry, looked up): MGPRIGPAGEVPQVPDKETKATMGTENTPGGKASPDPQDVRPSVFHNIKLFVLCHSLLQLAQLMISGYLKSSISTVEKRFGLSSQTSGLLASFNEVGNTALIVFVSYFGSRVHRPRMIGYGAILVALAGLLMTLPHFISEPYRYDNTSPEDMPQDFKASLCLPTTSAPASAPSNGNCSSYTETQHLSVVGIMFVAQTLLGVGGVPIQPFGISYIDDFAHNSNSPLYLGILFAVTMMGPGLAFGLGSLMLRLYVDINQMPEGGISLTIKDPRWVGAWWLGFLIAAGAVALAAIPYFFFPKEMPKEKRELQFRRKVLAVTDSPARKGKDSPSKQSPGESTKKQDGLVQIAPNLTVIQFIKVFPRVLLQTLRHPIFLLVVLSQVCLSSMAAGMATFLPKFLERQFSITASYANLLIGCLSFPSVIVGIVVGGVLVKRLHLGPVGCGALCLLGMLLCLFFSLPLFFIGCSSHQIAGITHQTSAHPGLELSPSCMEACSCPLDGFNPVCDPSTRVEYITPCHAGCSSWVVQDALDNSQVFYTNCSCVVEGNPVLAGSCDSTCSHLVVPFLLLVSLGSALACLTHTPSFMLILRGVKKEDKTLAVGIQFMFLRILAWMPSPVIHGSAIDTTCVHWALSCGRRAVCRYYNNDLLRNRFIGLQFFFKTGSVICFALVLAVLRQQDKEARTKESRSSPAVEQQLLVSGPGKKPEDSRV
Sequence of UniProt Q9NNX6 (whole entry, looked up): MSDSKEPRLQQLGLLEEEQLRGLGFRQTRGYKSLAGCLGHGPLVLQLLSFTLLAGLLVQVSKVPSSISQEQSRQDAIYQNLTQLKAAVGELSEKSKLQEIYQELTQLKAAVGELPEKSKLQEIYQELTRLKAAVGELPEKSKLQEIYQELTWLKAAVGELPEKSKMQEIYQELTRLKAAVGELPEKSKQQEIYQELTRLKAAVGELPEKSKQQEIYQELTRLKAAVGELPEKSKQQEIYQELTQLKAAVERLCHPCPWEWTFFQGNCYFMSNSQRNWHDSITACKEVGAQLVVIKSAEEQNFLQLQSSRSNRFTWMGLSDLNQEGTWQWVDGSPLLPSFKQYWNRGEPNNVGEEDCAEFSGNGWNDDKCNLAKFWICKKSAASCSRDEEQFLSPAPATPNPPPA
Sequence of UniProt Q8R2Y0 (whole entry, looked up): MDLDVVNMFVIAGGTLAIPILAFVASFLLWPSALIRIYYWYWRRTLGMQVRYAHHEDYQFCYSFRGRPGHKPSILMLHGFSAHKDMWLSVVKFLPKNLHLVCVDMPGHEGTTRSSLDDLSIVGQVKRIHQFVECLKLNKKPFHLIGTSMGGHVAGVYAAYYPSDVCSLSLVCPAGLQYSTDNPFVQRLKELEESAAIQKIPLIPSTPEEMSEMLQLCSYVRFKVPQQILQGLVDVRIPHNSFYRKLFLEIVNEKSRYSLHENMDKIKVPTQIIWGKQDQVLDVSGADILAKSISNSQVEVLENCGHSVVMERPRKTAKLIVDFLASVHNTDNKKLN
Sequence of UniProt P06276 (whole entry, looked up): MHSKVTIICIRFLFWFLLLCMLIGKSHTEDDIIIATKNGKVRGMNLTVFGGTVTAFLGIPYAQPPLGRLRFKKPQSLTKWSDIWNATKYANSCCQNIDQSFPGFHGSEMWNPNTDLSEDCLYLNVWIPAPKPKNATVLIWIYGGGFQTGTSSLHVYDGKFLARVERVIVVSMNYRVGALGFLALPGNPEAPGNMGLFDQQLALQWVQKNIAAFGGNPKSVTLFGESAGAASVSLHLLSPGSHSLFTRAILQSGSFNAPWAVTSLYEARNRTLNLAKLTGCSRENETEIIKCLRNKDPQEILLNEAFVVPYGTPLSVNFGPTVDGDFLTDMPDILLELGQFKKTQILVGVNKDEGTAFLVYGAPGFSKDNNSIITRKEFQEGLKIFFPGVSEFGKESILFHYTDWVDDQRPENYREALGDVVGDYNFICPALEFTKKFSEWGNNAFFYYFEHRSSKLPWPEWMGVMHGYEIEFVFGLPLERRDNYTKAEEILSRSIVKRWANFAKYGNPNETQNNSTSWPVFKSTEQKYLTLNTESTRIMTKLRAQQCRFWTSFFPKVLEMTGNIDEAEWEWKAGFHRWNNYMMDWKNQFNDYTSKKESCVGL

SMILES	target	test	test system	setting	IC50 [µM]
Cc1cccc(C)c1OCC(=O)N[C@@H](Cc1ccccc1)[C@@H](O)C[C@H](Cc1ccccc1)NC(=O)[C@H](C(C)C)N1CCCNC1=O	Solute carrier organic anion transporter family member 2B1 (SLCO2B1, Homo sapiens, UniProt O94956)	transport	–	–	0.72
O=c1cccccc1O	Elastase (lasB, Pseudomonas aeruginosa, UniProt P14756)	inhibitor	–	–	387 ± 1
CCOC(=O)[C@H](CC(C)C)NC(=O)[C@H](Cc1c[nH]cn1)NC(=O)CNC(=O)[C@@H](NC(=O)[C@H](C)NC(=O)[C@H](Cc1c[nH]c2ccccc12)NC(=O)[C@H](CCC(N)=O)NC(=O)[C@H](N)Cc1ccccc1)C(C)C	Gastrin-releasing peptide receptor	binding	–	literature species comparison	0.005 ± 0.001
CC(C)c1c(Cc2ccccc2)n(COCc2ccccc2)c(=O)n(N)c1=O	gag-pol integrase	strand transfer, inhibitor, gel	HIV-1	–	> 111
CC(C)C[C@H]1C(=O)N2CCC[C@H]2[C@]2(O)O[C@](NC(=O)[C@@H]3C=C4c5cccc6[nH]c(Br)c(c56)C[C@H]4N(C)C3)(C(C)C)C(=O)N12	Genome polyprotein, NS2B-NS3 protease (Zika virus, UniProt Q32ZE1)	protease activity	–	–	21.6
Nc1nc(N)c2c(n1)[nH]c1cccc(Sc3ccccc3)c12	Thymidylate synthase (Escherichia coli K-12, UniProt P0A884)	–	–	–	> 27
O=C(O)[C@]1(O)C[C@@H](O)[C@@H](O)[C@H](O)C1	HIV integrase	enzyme activity, inhibitor	–	–	> 25
CCCCNC(=O)[C@H](CC(C)C)NC(=O)[C@H](Cc1c[nH]cn1)NC(=O)CNC(=O)[C@@H](NC(=O)[C@H](C)NC(=O)[C@H](Cc1c[nH]c2ccccc12)NC(=O)[C@H](CCC(N)=O)NC(=O)[C@H](N)Cc1ccccc1)C(C)C	Gastrin-releasing peptide receptor	binding	–	literature species comparison	0.014 ± 0.001
O=C(/C=C/c1ccc(O)c(O)c1)OCCc1ccccc1	HIV-1 integrase	inhibitor	–	published values	18.9
CC(C)c1ccc(O)c(=O)c(O)c1	Gag-Pol polyprotein, RNase H domain (gag-pol, Human immunodeficiency virus type 1 group M subtype B, UniProt P04585)	RNase H activity, inhibitor	HIV-1	–	0.2
O=C(Oc1ccc([N+](=O)[O-])cc1)N1CCC(C(O)(c2ccc3c(c2)OCO3)c2ccc3c(c2)OCO3)CC1	Monoacylglycerol lipase ABHD6 (Abhd6, Mus musculus, UniProt Q8R2Y0)	–	–	previously reported	3.27
CO[C@H]([C@@H](C)[C@H]1O[C@]1(C)C[C@H](C)/C=C/C=C(\C)[C@H]1O[C@@H](CC(=O)O)CC[C@@H]1C)[C@@H](C)O	Splicing factor 3B subunit 1 / PHD finger-like domain-containing protein 5A (Homo sapiens, UniProt O75533+Q7RTV0)	in vitro splicing, inhibitor	–	–	0.3
OC[C@H]1OC(O)[C@@H](O)[C@@H](O)[C@@H]1O (stereo partly shown)	CD209 antigen (CD209, Homo sapiens, UniProt Q9NNX6)	binding	–	–	2000 to 3000
CCCCCCNC(=O)[C@H](CC(C)C)NC(=O)[C@H](Cc1cnc[nH]1)NC(=O)CNC(=O)[C@@H](NC(=O)[C@H](C)NC(=O)[C@H](Cc1c[nH]c2ccccc12)NC(=O)[C@H](CCC(N)=O)NC(=O)[C@H](N)Cc1ccccc1)C(C)C	Gastrin-releasing peptide receptor	binding	–	literature species comparison	0.103 ± 0.008
O=c1c(O[C@@H]2O[C@H](CO)[C@@H](O)[C@H](O)[C@H]2O)c(-c2ccc(O)c(O)c2)oc2cc(O)cc(O)c12	atpG/atpA/atpD	ATP synthase activity, inhibitor	–	–	~71
Cc1cc(O)c2c(=O)c3c(O)cc(O)c4c5c(O)cc(O)c6c(=O)c7c(O)cc(C)c8c1c2c(c34)c(c78)c65	UDP-glucuronosyltransferase 1A6 (UGT1A6, Homo sapiens, UniProt P19224)	enzyme activity, inhibitor	–	together with: acetaminophen glucuronidation	7.1
O=c1c(O)c(-c2ccc(O)c(O)c2)oc2cc(O)cc(O)c12	atpG/atpA/atpD	ATP synthase activity, inhibitor	–	–	~33
COc1ccc(C(=O)NN=Cc2ccc(O)c3ncccc23)cc1	Chaperonin GroEL, with GroES (groEL, Escherichia coli, UniProt P0A6F5)	GroEL/ES-mediated refolding, inhibitor	–	together with: denatured malate dehydrogenase	31
CCOc1cc(Oc2ccc(C(F)(F)F)cc2Cl)ccc1[N+](=O)[O-]	SLC5A5 (Homo sapiens, UniProt Q92911)	iodide uptake, inhibitor	–	–	2
CC(C)c1ccc(NC(=O)Oc2ccc3c(c2)[C@]2(C)CCN[C@@H]2N3)cc1	Cholinesterase (BCHE, Homo sapiens, UniProt P06276)	enzyme activity, inhibitor	–	–	0.001 ± 0.0001
O=C(O)c1cc(N(Cc2ccccc2O)Cc2ccccc2O)ccc1O	Gag-Pol polyprotein, integrase with LEDGF/p75 (gag-pol, Human immunodeficiency virus 1, UniProt P12497)	binding, AlphaScreen	–	–	94.1
Cc1ccc(C(=O)Nc2ccc(S(=O)(=O)O)c3cc(S(=O)(=O)O)cc(S(=O)(=O)O)c23)cc1NC(=O)c1cccc(NC(=O)Nc2cccc(C(=O)Nc3cc(C(=O)Nc4ccc(S(=O)(=O)O)c5cc(S(=O)(=O)O)cc(S(=O)(=O)O)c45)ccc3C)c2)c1	CD40 ligand, with CD40 (Homo sapiens, UniProt P29965)	CD40-CD40L interaction	–	–	~50
O=C(O)[C@H](O)[C@@H](O)C(=O)O	HIV integrase	enzyme activity, inhibitor	–	–	> 25
CC(C)c1c(Cc2ccccc2)n(COCc2ccc(F)cc2)c(=O)n(O)c1=O	gag-pol integrase	strand transfer, inhibitor, gel	HIV-1	–	3.5 ± 0.6
CC(C)C[C@H](NC(=O)OCc1ccccc1)C(=O)N[C@@H](CC1CCNC1=O)C(O)S(=O)(=O)O (stereo partly shown)	Calpain-1 catalytic subunit (CAPN1, Homo sapiens, UniProt P07384)	inhibitor	–	–	0.074
CCCCCCCNC(=O)[C@H](CC(C)C)NC(=O)[C@H](Cc1c[nH]cn1)NC(=O)CNC(=O)[C@@H](NC(=O)[C@H](C)NC(=O)[C@H](Cc1c[nH]c2ccccc12)NC(=O)[C@H](CCC(N)=O)NC(=O)[C@H](N)Cc1ccccc1)C(C)C	Gastrin-releasing peptide receptor	binding	–	literature species comparison	0.092 ± 0.012
O=C(O)C(=O)C=C(O)c1cc(Cc2ccc(F)cc2F)cn(Cc2ccccc2F)c1=O	gag-pol integrase	integrase strand transfer, inhibitor	–	–	0.006
O=C(O)C1=CC(=C(c2ccc(O)c(C(=O)O)c2)c2ccc(O)c(C(=O)O)c2)C=CC1=O	HCV NS3 helicase	RNA unwinding, inhibitor	–	–	0.4 ± 0.2

Excerpt of the above:
SMILES	target	test	test system	setting	IC50 [µM]
CC(C)c1c(Cc2ccccc2)n(COCc2ccc(F)cc2)c(=O)n(O)c1=O	gag-pol integrase	strand transfer, inhibitor, gel	HIV-1	–	3.5 ± 0.6
